# Published values pooled from the literature.
# Compare with care: the assays were run in different laboratories. ± gives the spread as reported.
SMILES,test,system,setting,Cmax
CNC(=O)c1cc(Oc2ccc(NC(=O)N(c3ccc(Cl)c(C(F)(F)F)c3)[C@@H]3O[C@H](C(=O)O)[C@@H](O)[C@H](O)[C@H]3O)cc2)ccn1,,"patients, plasma","oral, 400 mg twice daily, steady state, geometric mean, added: rifampin 600 mg oral",5370 ng/mL
CCc1nc2c(C)cc(N3CCN(CC(=O)N4CC(O)C4)CC3)cn2c1N(C)c1nc(-c2ccc(F)cc2)c(C#N)s1,,"healthy volunteers, fed, plasma","oral, 600 mg single dose, day 1, capsule",7500 ng/mL
O=C(O)c1cc(O)c(O)c(O)c1,,"broiler chickens, serum","oral, in feed, 2000 mg/kg feed, 24 h, corn diet with tannins",330 ± 100 nM
O=C([O-])CCCCCCCNC(=O)c1ccccc1O.[Na+],,healthy postmenopausal women,"oral, 300 mg, geometric mean, added: oral contraceptive plus oral semaglutide",2020 ng/mL
CC(=O)O[C@@]12CO[C@@H]1C[C@H](O)[C@@]1(C)C(=O)[C@H](O)C3=C(C)[C@@H](OC(=O)[C@H](O)[C@@H](NC(=O)OC(C)(C)C)c4ccccc4)C[C@@](O)([C@@H](OC(=O)c4ccccc4)[C@H]21)C3(C)C,,"patients, plasma","intravenous, 75 mg/m^2, without co-administered drug",799 ng/mL
O=C(c1cccnc1-c1ccncc1)N1CCC(O)(Cc2ccccc2)CC1,,"healthy Japanese adults, plasma","oral, 600 mg single dose, geometric mean, PK/QTc set",3000 ng/mL
CC(=O)Nc1ccc(C[C@H](NC(=O)[C@H](CO)NC(=O)[C@@H](Cc2cccnc2)NC(=O)[C@@H](Cc2ccc(Cl)cc2)NC(=O)[C@@H](Cc2ccc3ccccc3c2)NC(C)=O)C(=O)N[C@H](Cc2ccc(NC(C)=O)cc2)C(=O)N[C@@H](CC(C)C)C(=O)N[C@@H](CCCCNC(C)C)C(=O)N2CCC[C@H]2C(=O)N[C@H](C)C(N)=O)cc1,,"healthy men, fasted, serum","oral, 20 mg single dose",20.7 ± 18.6 ng/mL
C[C@@H](N)C1CCN(S(=O)(=O)c2cccc3cnccc23)CC1,,"healthy volunteers, fasted, plasma","oral, 25 mg",3.66 ng/mL
N[C@@H]1c2ccccc2OC12CCN(c1cnc3c(N4CCCc5ncccc54)n[nH]c3n1)CC2,,"advanced metastatic solid tumour patients, plasma","oral, 100 mg once daily, cycle 1 day 15, geometric mean",1070 ng/mL
Oc1ccc([C@@H](O)c2cc(-c3ncnc4cc(N5CCOCC5)ccc34)c(F)cc2Cl)nn1,geometric mean,"healthy volunteers, plasma","oral, 100 mg, fasted oral suspension",170 ng/mL
C=CC(=O)NC1CCN(c2ncc3ncnc(Nc4ccc(Oc5ccc6c(c5)ncn6C)c(C)c4)c3n2)CC1,item: total radioactivity,"healthy male volunteers, whole blood","oral solution, 60 mg, 14C-labelled, geometric mean",1110 nM
CCNC(=O)[C@@H]1CCCN1C(=O)[C@H](CCCNC(=N)N)NC(=O)[C@H](CC(C)C)NC(=O)[C@@H](CC(C)C)NC(=O)[C@H](Cc1ccc(O)cc1)NC(=O)[C@H](CO)NC(=O)[C@H](Cc1c[nH]c2ccccc12)NC(=O)[C@H](Cc1c[nH]cn1)NC(=O)[C@@H]1CCC(=O)N1,,healthy female volunteers,"oral, 1 mg single dose",1.9 ± 1.3 ng/mL
COc1c(O)cc(C(=O)O)cc1O,,"broiler chickens, serum","oral, in feed, 2000 mg/kg feed, 24 h, wheat diet with tannins",130 ± 50 nM
C[C@@](Cc1ccc(O)c(O)c1)(NN)C(=O)O,,"male Parkinson's disease patients, plasma","oral, dose not given, median",45.3 ng/mL
C=C(F)C(=O)N1CCN(c2nc(OC[C@@H]3CCCN3C)nc3c2CCN(c2cccc4cccc(Cl)c24)C3)C[C@@H]1CC#N,,"healthy volunteers, plasma","oral, 400 mg twice daily",1270 ng/mL
N[C@@H](CC(=O)N1CCc2c(nc(C(F)(F)F)nc2C(F)(F)F)C1)CN1CC(F)(F)CCC1=O,,"healthy Korean adults, fasted, plasma","oral, 50 mg single dose, fixed-dose combination tablet, added: enavogliflozin 0.3 mg",104 ± 34 ng/mL
C=CC(=O)NC1CCN(c2ncc3ncnc(Nc4ccc(Oc5ccc6c(c5)ncn6C)c(C)c4)c3n2)CC1,,healthy men,"oral, 60 mg single dose",914 nM
COc1ccc2[nH]c([S+]([O-])Cc3ncc(C)c(OC)c3C)nc2c1 (stereo not shown),LC-MS/MS,"healthy Chinese, CYP2C19*3 GG, plasma","oral, 20 mg",469 ± 503 ng/mL
C[C@@H]1CCO[C@H]2Cn3cc(C(=O)NCc4ccc(F)cc4F)c(=O)c(O)c3C(=O)N12,"population PK, post-hoc","children, 14 to <20 kg, plasma","oral, 15 mg dispersible tablet, steady state, geometric mean",3390 ng/mL
COc1nnc2ccc(N3CCC(c4ccc(OCCN5CCN(C)C(=O)[C@H]5C)cc4)CC3)nn12,,"patients, plasma","oral, 20 mg twice daily, multiple dose, monotherapy",109 nM
CCc1nc(C(N)=O)c(Nc2ccc(N3CCC(N4CCN(C)CC4)CC3)c(OC)c2)nc1NC1CCOCC1,,"patients, plasma","oral, 300 mg once daily, cycle 1 day 15, median",1260 ng/mL
O=C(Nc1cnccc1Cl)N1CCN(Cc2ccc3c(c2)OC(F)(F)O3)CC1,,"healthy young men, plasma","oral, 10 mg once daily, day 10",78.9 ng/mL
CCNC(=O)[C@@H]1CCCN1C(=O)[C@H](CCCNC(=N)N)NC(=O)[C@H](CC(C)C)NC(=O)[C@@H](CC(C)C)NC(=O)[C@H](Cc1ccc(O)cc1)NC(=O)[C@H](CO)NC(=O)[C@H](Cc1c[nH]c2ccccc12)NC(=O)[C@H](Cc1c[nH]cn1)NC(=O)[C@@H]1CCC(=O)N1,,"healthy premenopausal women, plasma","oral, 4 mg once daily, day 29",2.7 ± 3.6 ng/mL
CN[C@H](CC(C)C)C(=O)N[C@H]1C(=O)N[C@@H](CC(N)=O)C(=O)N[C@H]2C(=O)N[C@H]3C(=O)N[C@H](C(=O)N[C@H](C(=O)O)c4cc(O)cc(O)c4-c4cc3ccc4O)[C@H](O)c3ccc(c(Cl)c3)Oc3cc2cc(c3O[C@@H]2O[C@H](CO)[C@@H](O)[C@H](O)[C@H]2O[C@H]2C[C@](C)(N)[C@H](O)[C@H](C)O2)Oc2ccc(cc2Cl)[C@H]1O,,"guinea pig, tissue cage fluid","intraperitoneal, 15 mg/kg single",7500 ng/mL
Cc1ccc2c(c1)C(=O)[C@]1(O)CCN(c3ccc4nc(C)ccc4c3)C1=N2.Cl,,plasma,"intravenous, 2 mg/kg",5450 ± 180 nM
COc1ccc2c(c1)CN(C(=O)CCN1CCC(Cc3ccccc3)CC1)CC[S@@+]2[O-],,"healthy male volunteers, plasma","intravenous, 0.6 mg/kg",2000 ng/mL
C[C@H]1[C@@H](O)O[C@@H]2O[C@@]3(C)CC[C@H]4[C@H](C)CC[C@@H]1[C@@]24OO3,,"healthy volunteers, plasma","oral, dose not given, fixed-dose combination",566 ng/mL
CCCCCCCOc1ccc(CCC(N)(CO)CO)cc1C(F)(F)F.Cl,,"healthy men, plasma","oral, 0.5 mg, day 21",3.56 ng/mL
CC[C@H](C)CCCCC(=O)N[C@@H](CCN)C(=O)N[C@H](C(=O)N[C@@H](CCN)C(=O)N[C@H]1CCNC(=O)[C@H]([C@@H](C)O)NC(=O)[C@H](CCN)NC(=O)[C@H](CCN)NC(=O)[C@H](CC(C)C)NC(=O)[C@@H](Cc2ccccc2)NC(=O)[C@H](CCN)NC1=O)[C@@H](C)O,LC-MS/MS,"ESKD on long-term intermittent haemodialysis, plasma","intravenous infusion, 0.75 mg/kg single dose over 1 h, arithmetic mean",2800 ng/mL
CCCCCCCCCCCCCCCC(=O)N[C@@H](CCC(=O)NCCCC[C@@H]1NC(=O)[C@H]([C@@H](C)CC)NC(=O)[C@@H](NC(=O)[C@@H]2CCCN2C(=O)[C@H](Cc2ccccc2)NC(=O)[C@H](Cc2c[nH]cn2)NC(=O)[C@@H](NC(=O)[C@H](CC(=O)O)NC(=O)CC(C)C)[C@@H](C)O)CSSC[C@@H](C(=O)N[C@@H](CCCCN)C(N)=O)NC(=O)CNC(=O)[C@H](CCCCN)NC(=O)[C@H](CO)NC(=O)[C@H](CCCNC(=N)N)NC(=O)[C@@H]2CCCN2C(=O)[C@H](CCC(=O)O)NC(=O)[C@H](Cc2ccccc2)NC1=O)C(=O)O,,"healthy volunteers, plasma","subcutaneous, 60 mg single, lyophilised formulation",776 ± 842 ng/mL
OC[C@H]1O[C@@H](c2ccc(F)c(Cc3cc4ccccc4s3)c2)[C@H](O)[C@@H](O)[C@@H]1O,,"Japanese type 2 diabetes patients, plasma","oral, 50 mg/day, day 14",1400 ± 273 ng/mL
C[C@H]1[C@H]2N(C(=O)CN(C)N2C(=O)NCc2ccccc2)[C@@H](Cc2ccc(OP(=O)(O)O)cc2)C(=O)N1Cc1cccc2cccnc12,,"patients, plasma","intravenous infusion, 280 mg/m2 over 4 h, median",1950 ng/mL
C[C@H](NC(=O)/C(C#N)=C/c1cccc(Br)n1)c1ccccc1,LC-MS/MS,"patients, plasma","oral, 2 mg/kg, cycle 1 day 1",31 ng/mL
CC(=O)N[C@H]1CC[C@H](NC(=O)CN2CCN(c3nncc(-c4ccc(C)cc4)n3)CC2)CC1,,"men aged ≥65 years, plasma","oral, 100 mg single dose, study",1020 ng/mL
Cc1c(C(=O)O)ccc2c3n(nc12)[C@@H]1[C@H](C3)N(CC2CC2)[C@@]2(C(=O)Nc3cc(Cl)ccc32)[C@H]1c1cccc(Cl)c1F,,"cancer patients, plasma","oral, 45 mg day 1 every 3 weeks, geometric mean, cycle 1",2880 nM
CCCCOCCOc1ccc(-c2ccc3c(c2)/C=C(/C(=O)Nc2ccc([S@@+]([O-])Cc4cncn4CCC)cc2)CCCN3CC(C)C)cc1,,"mild hepatic impairment patients, plasma","oral, 150 mg, day 1, single dose, geometric mean",453 ng/mL
Cc1ccc(NC(=O)c2ccc(CN3CCN(C)CC3)cc2)cc1Nc1nccc(-c2cncc(-c3oncc3C)c2)n1,,"Parkinson's disease patients, plasma","oral, 100 mg/day, 7 days, steady state",3320 ± 1870 ng/mL

# Repeated from above:
SMILES,test,system,setting,Cmax
CCNC(=O)[C@@H]1CCCN1C(=O)[C@H](CCCNC(=N)N)NC(=O)[C@H](CC(C)C)NC(=O)[C@@H](CC(C)C)NC(=O)[C@H](Cc1ccc(O)cc1)NC(=O)[C@H](CO)NC(=O)[C@H](Cc1c[nH]c2ccccc12)NC(=O)[C@H](Cc1c[nH]cn1)NC(=O)[C@@H]1CCC(=O)N1,,"healthy premenopausal women, plasma","oral, 4 mg once daily, day 29",2.7 ± 3.6 ng/mL
N[C@@H](CC(=O)N1CCc2c(nc(C(F)(F)F)nc2C(F)(F)F)C1)CN1CC(F)(F)CCC1=O,,"healthy Korean adults, fasted, plasma","oral, 50 mg single dose, fixed-dose combination tablet, added: enavogliflozin 0.3 mg",104 ± 34 ng/mL
